Experimental data pooled from the literature.
Protocols differ between the studies behind these lines. Numbers after ± are the reported error.
mcmA: mcmA (Methylobacterium extorquens, UniProt C5AV67)
T1: Ffh/4.5S SRP RNA (Escherichia coli); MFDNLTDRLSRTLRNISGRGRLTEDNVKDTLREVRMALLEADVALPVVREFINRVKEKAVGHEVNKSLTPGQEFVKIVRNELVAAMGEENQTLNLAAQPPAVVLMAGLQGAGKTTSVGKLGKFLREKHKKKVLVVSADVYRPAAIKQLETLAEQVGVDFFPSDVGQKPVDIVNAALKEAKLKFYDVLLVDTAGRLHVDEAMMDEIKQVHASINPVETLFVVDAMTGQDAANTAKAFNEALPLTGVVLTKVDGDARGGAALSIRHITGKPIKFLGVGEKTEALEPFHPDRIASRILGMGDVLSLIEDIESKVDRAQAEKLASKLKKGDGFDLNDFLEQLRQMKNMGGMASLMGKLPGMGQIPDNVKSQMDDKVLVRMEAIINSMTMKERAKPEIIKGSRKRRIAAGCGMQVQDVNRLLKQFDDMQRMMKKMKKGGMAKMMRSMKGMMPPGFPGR
B1: ftsY 47-497 E475K (Escherichia coli, UniProt P10121); chain ASEQAVEEQPQAHTEAEAETFAADVVEVTEQVAESEKAQPEAEVVAQPEPVVEETPEPVAIEREELPLPEDVNAEAVSPEEWQAEAETVEIVEAAEEEAAKEEITDEELETALAAEAAEEAVMVVPPAEEEQPVEEIAQEQEKPTKEGFFARLKRSLLKTKENLGSGFISLFRGKKIDDDLFEELEEQLLIADVGVETTRKIITNLTEGASRKQLRDAEALYGLLKEEMGEILAKVDEPLNVEGKAPFVILMVGVNGVGKTTTIGKLARQFEQQGKSVMLAAGDTFRAAAVEQLQVWGQRNNIPVIAQHTGADSASVIFDAIQAAKARNIDVLIADTAGRLQNKSHLMEELKKIVRVMKKLDVEAPHEVMLTIDASTGQNAVSQAKLFHEAVGLTGITLTKLDGTAKGGVIFSVADQFGIPIRYIGVGKRIEDLRPFKADDFIEALFARED
B2: fliP mature (Salmonella enterica, UniProt P54700); sequence looked up; chain QLPGLISQPLAGGGQSWSLSVQTLVFITSLTFLPAILLMMTSFTRIIIVFGLLRNALGTPSAPPNQVLLGLALFLTFFIMSPVIDKIYVDAYQPFSEQKISMQEALDKGAQPLRAFMLRQTREADLALFARLANSGPLQGPEAVPMRILLPAYVTSELKTAFQIGFTIFIPFLIIDLVIASVLMALGMMMVPPATIALPFKLMLFVLVDGWQLLMGSLAQSFYS
B3: bfd 1-73 C43S (Pseudomonas aeruginosa, UniProt Q9HY80); chain MYVCLCQGVTDNQIRDAIYEGCCSYREVREATGVGTQCGKCASLAKQVVRETLNDLQSAQPVPAFGTTAFVAA
B4: FBLN5 247-333 (Homo sapiens, UniProt Q9UBX5); chain DMDECSFSEFLCQHECVNQPGTYFCSCPPGYILLDDNRSCQDINECEHRNHTCNLQQTCYNLQGGFKCIDPIRCEEPYLRISDNRCM
B5: CyaY 1-106 (Escherichia coli, UniProt P27838); chain MNDSEFHRLADQLWLTIEERLDDWDGDSDIDCEINGGVLTITFENGSKIIINRQEPLHQVWLATKQGGYHFDLKGDEWICDRSGETFWDLLEQAATQQAGETVSFR
B6: CCNO (Homo sapiens, UniProt P22674); chain MVTPCPTSPSSPAARAGRRDNDQNLRAPVKKSRRPRLRRKQPLHPLNPCPLPGDSGICDLFESPSSGSDGAESPSAARGGSPLPGPAQPVAQLDLQTFRDYGQSCYAFRKAQESHFHPREALARQPQVTAESRCKLLSWLIPVHRQFGLSFESLCLTVNTLDRFLTTTPVAADCFQLLGVTSLLIACKQVEVHPPRVKQLLALCCGAFSRQQLCNLECIVLHKLHFTLGAPTISFFLEHFTHARVEAGQAEASEALEAQALARGVAELSLADYAFTSYSPSLLAICCLALADRMLRVSRPVDLRLGDHPEAALEDCMGKLQLLVAINSTSLTHMLPVQICEKCSLPPSSK
B7: protein 1-329 (Methylobacterium extorquens, UniProt C5AP93); chain MSATLPDMDTLRERLLAGDRAALARAITLAESRRADHRAAVRDLIDAVLPQTGRAIRVGITGVPGVGKSTTIDALGSLLTAAGHKVAVLAVDPSSTRTGGSILGDKTRMARLAIDRNAFIRPSPSSGTLGGVAAKTRETMLLCEAAGFDVILVETVGVGQSETAVADLTDFFLVLMLPGAGDELQGIKKGILELADMIAVNKADDGDGERRASAAASEYRAALHILTPPSATWTPPVVTISGLHGKGLDSLWSRIEDHRSKLTATGEIAGKRREQDVKWMWALVHERLHQRLVGSAEVRQATAEAERAVAGGEHSPAAGADAIATLIGL
B8: bfd 1-73 L5A/C43S (Pseudomonas aeruginosa, UniProt Q9HY80); chain MYVCACQGVTDNQIRDAIYEGCCSYREVREATGVGTQCGKCASLAKQVVRETLNDLQSAQPVPAFGTTAFVAA
B9: EVA4 24-127 (Rhipicephalus sanguineus, UniProt P0C8E9); N-glycosylated; chain EVPQMTSSSAPDLEEEDDYTAYAPLTCYFTNSTLGLLAPPNCSVLCNSTTTWFNETSPNNASCLLTVDFLTQDAILQENQPYNCSVGHCDNGTCAGPPRHAQCW
B10: protein 1-329 K188E (Methylobacterium extorquens, UniProt C5AP93); chain MSATLPDMDTLRERLLAGDRAALARAITLAESRRADHRAAVRDLIDAVLPQTGRAIRVGITGVPGVGKSTTIDALGSLLTAAGHKVAVLAVDPSSTRTGGSILGDKTRMARLAIDRNAFIRPSPSSGTLGGVAAKTRETMLLCEAAGFDVILVETVGVGQSETAVADLTDFFLVLMLPGAGDELQGIEKGILELADMIAVNKADDGDGERRASAAASEYRAALHILTPPSATWTPPVVTISGLHGKGLDSLWSRIEDHRSKLTATGEIAGKRREQDVKWMWALVHERLHQRLVGSAEVRQATAEAERAVAGGEHSPAAGADAIATLIGL

TBK1 fragment I582A (Homo sapiens)
reduction of IFN-β reporter (STING1 (Homo sapiens, UniProt Q86WV6); IFN-β luciferase reporter; TBK1 KO HEK293T; with: cGAMP; relative to: wild-type TBK1, higher = more reduction): 40%

RB1 fragment (Homo sapiens)
first-order rate constant (CDK2/CCNA2; phosphorylation; wild type, with: E2F1-DP1): 0.023 min⁻¹

B1 (ftsY 47-497 E475K)
relative translocation efficiency (T1, Ffh/4.5S SRP RNA (Escherichia coli); translocation; relative to: wild-type FtsY, higher = greater reduction): 2 fold

APOBEC3B (Homo sapiens, UniProt Q9UH17)
cMyc protein level (PFDN5 (Homo sapiens, UniProt Q99471-1); immunoblot; HEK293T; with: MG132 12.5 µM; relative to: cMyc alone, higher = more cMyc): 7.5 fold

ALDOA (Oryctolagus cuniculus, UniProt P00883)
ka1 (TRAP C-terminal cytoplasmic tail (Plasmodium falciparum); SPR; two-state model): 33700 M⁻¹ s⁻¹

N-formyl-Met-Leu-Phe, N-formyl
pEC50 (FPR2 (Homo sapiens, UniProt P25090); aequorin luminescence, agonist; CHO-K1): 5.94 pEC50

HIP-4.4
IC50 (HLA-DRA/HLA-DRB1*04:01 (Homo sapiens); competition with biotinylated peptide, competitor, competition binding assay): 10 µM

gpsI (Mycolicibacterium smegmatis, UniProt A0QVQ5)
binding (rne D694R/D738R (Mycolicibacterium smegmatis, UniProt A0R152); co-IP): binds

B2 (fliP mature)
molecule per partner (fliR (Salmonella enterica, UniProt P54702); cryo-EM): 5

EDGGSWKYPDAFELSG (C3P-pd peptide)
molecule per partner (MSN 1-345 (Homo sapiens, UniProt P26038); ITC; peptide; pH 7.4, 25 °C, NaCl 200 mM): 1

Epo-Fc Fc fusion, hinge-CH2-CH3, glycosylated (Mus musculus)
serum level (Fcgrt heavy chain (Mus musculus, UniProt Q61559); ELISA; intranasal, adult mice; relative to: Epo-Fc/IHH, higher = more absorption): > 5 fold

B3 (bfd 1-73 C43S)
iron release rate (bfrB 1-158 E85A (Pseudomonas aeruginosa, UniProt Q9HY79); Fe2+-bipyridine formation; with: NADPH 1 mM): 0.018 min⁻¹

B4 (FBLN5 247-333)
binding (FBN1 31-489 (Homo sapiens, UniProt P35555); ELISA): binds

Dync1h1 F580Y (Mus musculus)
DHC/p150 ratio (Dctn1 (Mus musculus, UniProt O08788); co-IP; brain extract; 4 °C; relative to: wild type, lower = less binding): 1.3 fold

B5 (CyaY 1-106)
Kd (IscS/IscU 1-404 (Escherichia coli); BLI; pH 7.5, 25 °C, NaCl 150 mM, with: IscU 10 µM): 35 ± 6 nM

FPELIQDTSTSFSTTR (ARAP3 1414-1429 (Homo sapiens))
binding (SHANK1 652-765 (Homo sapiens, UniProt Q9Y566); crystal structure; peptide): binds

B6 (CCNO)
CDK2 kinase activity (CDK2 (Homo sapiens, UniProt P24941); histone H1 phosphorylation; HEK cells, immunoprecipitates; relative to: empty vector, higher = more activity): 2.5 fold

B7 (protein 1-329)
kcat (mcmA; GTP hydrolysis; GAP activity, with: MCM 2-fold): 4.2 min⁻¹

isdB fragment F164D/Y167D (Staphylococcus aureus)
heme transfer rate constant (HBA1/HBB methemoglobin (Homo sapiens); heme transfer from methemoglobin): 0.004 s⁻¹

RC-LH1 core complex (Rhodopseudomonas palustris, UniProt O83005)
relative pull-down (protein (Rhodopseudomonas palustris, UniProt Q6N1K3); pull-down; solubilised membranes; relative to: total RC-LH1 complexes, higher = more pulled down): 10%

RAD23 (Saccharomyces cerevisiae, UniProt P32628)
molecule per partner (RPN1/RPN2/20S proteasome core particle reconstituted complex (Saccharomyces cerevisiae); atomic force microscopy): 1

B8 (bfd 1-73 L5A/C43S)
iron release rate (bfrB 1-158 (Pseudomonas aeruginosa, UniProt Q9HY79); Fe2+-bipyridine formation; with: NADPH 1 mM): 0.044 min⁻¹

B9 (EVA4 24-127)
IC50 (CCL14 (Homo sapiens, UniProt Q16627); chemotaxis inhibition; CCR1 cells; with: CCL14 1010 nM): 0.0024 µM

ipaB (Shigella flexneri)
relative binding (mxiH (Shigella flexneri, UniProt P0A223); co-purification, Western blot; Class IIb ipaD mutants; relative to: complemented strain, higher = more IpaB in needles): 130%

B10 (protein 1-329 K188E)
kcat (mcmA; GTP hydrolysis; GAP activity, with: MCM 2-fold): 0.28 min⁻¹

candidalysin (Candida albicans)
platelet counts (GP1BA (Homo sapiens, UniProt P07359); flow cytometry; MEG-01 megakaryocytes, releasates; 15 µM, 1 h, 37 °C, no antibody; relative to: Mk-only control, higher = more platelets): 14000 counts

RHOA GTP-bound G14V (Homo sapiens)
fold activation (PLCE1 PH-C 837-2281 (Rattus norvegicus, UniProt Q99P84); PI hydrolysis, activator, IP-One assay; liposomes; with: GTP; relative to: basal, higher = more activity): 5 fold

Repeated from above:
isdB fragment F164D/Y167D (Staphylococcus aureus)
heme transfer rate constant (HBA1/HBB methemoglobin (Homo sapiens); heme transfer from methemoglobin): 0.004 s⁻¹

RC-LH1 core complex (Rhodopseudomonas palustris, UniProt O83005)
relative pull-down (protein (Rhodopseudomonas palustris, UniProt Q6N1K3); pull-down; solubilised membranes; relative to: total RC-LH1 complexes, higher = more pulled down): 10%

RAD23 (Saccharomyces cerevisiae, UniProt P32628)
molecule per partner (RPN1/RPN2/20S proteasome core particle reconstituted complex (Saccharomyces cerevisiae); atomic force microscopy): 1

B8 (bfd 1-73 L5A/C43S)
iron release rate (bfrB 1-158 (Pseudomonas aeruginosa, UniProt Q9HY79); Fe2+-bipyridine formation; with: NADPH 1 mM): 0.044 min⁻¹
